Measured values of several laboratories.
A part holds a random share of what one study measured.
Sequence of UniProt P31749 (whole entry, looked up): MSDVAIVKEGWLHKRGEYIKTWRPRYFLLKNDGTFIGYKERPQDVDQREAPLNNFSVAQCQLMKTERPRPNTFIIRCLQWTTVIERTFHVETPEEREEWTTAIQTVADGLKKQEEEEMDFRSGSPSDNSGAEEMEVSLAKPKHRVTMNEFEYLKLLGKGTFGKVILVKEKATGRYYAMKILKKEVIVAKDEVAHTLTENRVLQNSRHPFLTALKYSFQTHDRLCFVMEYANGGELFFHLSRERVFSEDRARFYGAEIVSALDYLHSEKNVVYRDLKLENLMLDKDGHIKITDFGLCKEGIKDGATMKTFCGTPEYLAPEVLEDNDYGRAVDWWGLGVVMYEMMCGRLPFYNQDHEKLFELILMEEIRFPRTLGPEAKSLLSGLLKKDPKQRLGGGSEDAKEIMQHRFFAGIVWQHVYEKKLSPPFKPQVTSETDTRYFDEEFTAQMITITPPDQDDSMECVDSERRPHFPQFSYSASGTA
Sequence of UniProt P49759 (whole entry, looked up): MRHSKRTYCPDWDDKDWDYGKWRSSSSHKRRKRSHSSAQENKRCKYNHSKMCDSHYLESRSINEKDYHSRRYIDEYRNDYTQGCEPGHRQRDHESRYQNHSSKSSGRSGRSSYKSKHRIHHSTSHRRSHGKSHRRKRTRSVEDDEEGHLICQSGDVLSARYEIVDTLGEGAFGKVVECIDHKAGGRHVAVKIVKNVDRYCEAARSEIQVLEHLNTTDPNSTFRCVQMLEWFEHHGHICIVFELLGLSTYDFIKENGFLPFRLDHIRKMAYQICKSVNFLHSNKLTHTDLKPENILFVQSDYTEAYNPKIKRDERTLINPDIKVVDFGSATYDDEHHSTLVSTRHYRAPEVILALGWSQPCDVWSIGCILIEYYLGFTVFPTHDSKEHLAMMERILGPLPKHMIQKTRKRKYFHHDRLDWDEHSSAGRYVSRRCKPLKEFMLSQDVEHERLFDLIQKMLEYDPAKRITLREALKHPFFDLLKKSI
Sequence of UniProt P42679 (whole entry, looked up): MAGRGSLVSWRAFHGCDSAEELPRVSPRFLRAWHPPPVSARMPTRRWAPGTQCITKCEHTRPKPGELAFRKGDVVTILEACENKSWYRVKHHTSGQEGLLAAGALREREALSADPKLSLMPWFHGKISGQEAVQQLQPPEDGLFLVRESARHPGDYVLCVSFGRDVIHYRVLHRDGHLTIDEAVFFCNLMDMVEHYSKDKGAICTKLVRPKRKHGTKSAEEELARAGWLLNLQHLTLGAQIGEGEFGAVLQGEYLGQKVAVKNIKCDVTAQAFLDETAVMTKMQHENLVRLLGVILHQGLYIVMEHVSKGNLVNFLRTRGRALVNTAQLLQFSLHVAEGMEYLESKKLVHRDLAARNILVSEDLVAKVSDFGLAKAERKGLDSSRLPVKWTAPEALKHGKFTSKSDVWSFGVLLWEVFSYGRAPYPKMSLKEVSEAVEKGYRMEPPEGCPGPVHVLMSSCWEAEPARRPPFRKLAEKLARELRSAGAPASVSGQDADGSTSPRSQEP
Sequence of UniProt Q5VT25 (whole entry, looked up): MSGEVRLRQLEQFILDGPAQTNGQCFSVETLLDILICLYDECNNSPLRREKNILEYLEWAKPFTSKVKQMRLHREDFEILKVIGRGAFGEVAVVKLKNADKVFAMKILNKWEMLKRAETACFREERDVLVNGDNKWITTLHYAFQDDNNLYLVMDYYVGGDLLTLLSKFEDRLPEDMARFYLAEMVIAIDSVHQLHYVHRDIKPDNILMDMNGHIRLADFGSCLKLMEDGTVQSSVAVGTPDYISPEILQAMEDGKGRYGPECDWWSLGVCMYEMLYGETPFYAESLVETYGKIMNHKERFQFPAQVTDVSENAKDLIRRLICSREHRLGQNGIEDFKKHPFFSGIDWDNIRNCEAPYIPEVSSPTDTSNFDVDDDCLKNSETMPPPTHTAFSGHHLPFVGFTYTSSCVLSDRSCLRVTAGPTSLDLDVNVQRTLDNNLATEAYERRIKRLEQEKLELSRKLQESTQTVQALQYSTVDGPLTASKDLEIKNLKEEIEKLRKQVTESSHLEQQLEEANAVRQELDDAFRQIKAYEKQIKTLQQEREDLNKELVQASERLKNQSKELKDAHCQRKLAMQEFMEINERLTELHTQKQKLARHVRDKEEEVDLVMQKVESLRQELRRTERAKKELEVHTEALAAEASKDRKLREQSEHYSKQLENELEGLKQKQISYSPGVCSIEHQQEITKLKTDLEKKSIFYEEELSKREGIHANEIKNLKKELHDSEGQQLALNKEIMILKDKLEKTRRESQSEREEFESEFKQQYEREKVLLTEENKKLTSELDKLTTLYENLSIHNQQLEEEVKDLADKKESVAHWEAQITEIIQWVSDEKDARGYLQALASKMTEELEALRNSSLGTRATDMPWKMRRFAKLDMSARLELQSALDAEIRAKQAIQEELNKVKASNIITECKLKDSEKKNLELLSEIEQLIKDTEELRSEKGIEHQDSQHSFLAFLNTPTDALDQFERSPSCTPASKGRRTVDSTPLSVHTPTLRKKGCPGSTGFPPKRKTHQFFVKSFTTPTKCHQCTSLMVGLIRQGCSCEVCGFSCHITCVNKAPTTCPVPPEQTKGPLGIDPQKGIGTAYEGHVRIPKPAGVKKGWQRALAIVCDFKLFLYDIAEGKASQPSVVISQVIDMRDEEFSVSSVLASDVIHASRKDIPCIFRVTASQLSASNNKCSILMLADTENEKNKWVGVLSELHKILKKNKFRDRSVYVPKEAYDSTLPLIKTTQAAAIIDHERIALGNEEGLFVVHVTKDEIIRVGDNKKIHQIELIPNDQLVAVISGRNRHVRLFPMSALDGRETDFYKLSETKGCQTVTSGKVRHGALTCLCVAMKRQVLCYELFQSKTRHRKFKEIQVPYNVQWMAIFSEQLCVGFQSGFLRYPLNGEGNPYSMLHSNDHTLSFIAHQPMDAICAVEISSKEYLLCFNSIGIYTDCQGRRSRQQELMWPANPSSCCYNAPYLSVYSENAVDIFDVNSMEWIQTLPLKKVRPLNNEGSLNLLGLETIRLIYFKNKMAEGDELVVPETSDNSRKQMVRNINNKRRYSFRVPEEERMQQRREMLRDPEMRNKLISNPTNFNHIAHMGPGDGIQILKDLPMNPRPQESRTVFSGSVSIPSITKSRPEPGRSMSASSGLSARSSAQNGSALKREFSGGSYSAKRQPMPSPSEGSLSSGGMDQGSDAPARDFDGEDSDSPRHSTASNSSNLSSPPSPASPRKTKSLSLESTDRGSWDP
Sequence of UniProt P09769 (whole entry, looked up): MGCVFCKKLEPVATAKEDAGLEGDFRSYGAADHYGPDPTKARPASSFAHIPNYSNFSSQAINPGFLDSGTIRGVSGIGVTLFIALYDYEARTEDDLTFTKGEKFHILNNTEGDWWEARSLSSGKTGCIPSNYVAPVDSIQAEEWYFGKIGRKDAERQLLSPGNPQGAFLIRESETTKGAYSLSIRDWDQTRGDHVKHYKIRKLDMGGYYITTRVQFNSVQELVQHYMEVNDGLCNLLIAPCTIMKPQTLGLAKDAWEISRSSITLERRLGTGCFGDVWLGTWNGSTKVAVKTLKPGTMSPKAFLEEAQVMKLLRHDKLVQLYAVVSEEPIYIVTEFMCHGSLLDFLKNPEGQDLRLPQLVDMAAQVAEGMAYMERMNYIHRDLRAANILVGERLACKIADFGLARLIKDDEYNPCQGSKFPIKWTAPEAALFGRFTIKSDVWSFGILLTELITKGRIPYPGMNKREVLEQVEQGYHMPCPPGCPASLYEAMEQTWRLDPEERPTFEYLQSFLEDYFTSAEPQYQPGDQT
Sequence of UniProt O00506 (whole entry, looked up): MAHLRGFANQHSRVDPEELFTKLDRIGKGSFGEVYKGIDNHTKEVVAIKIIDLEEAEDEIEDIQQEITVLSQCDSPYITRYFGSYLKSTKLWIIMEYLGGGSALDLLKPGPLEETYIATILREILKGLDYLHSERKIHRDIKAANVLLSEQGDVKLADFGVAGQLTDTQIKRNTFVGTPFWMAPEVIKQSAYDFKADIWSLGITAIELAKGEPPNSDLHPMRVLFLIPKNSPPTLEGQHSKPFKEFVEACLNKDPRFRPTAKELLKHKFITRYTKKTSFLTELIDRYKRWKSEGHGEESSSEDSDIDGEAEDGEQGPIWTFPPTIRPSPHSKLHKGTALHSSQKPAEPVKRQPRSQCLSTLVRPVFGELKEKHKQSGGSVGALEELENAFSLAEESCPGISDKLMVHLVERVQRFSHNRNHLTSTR
Sequence of UniProt Q00532 (whole entry, looked up): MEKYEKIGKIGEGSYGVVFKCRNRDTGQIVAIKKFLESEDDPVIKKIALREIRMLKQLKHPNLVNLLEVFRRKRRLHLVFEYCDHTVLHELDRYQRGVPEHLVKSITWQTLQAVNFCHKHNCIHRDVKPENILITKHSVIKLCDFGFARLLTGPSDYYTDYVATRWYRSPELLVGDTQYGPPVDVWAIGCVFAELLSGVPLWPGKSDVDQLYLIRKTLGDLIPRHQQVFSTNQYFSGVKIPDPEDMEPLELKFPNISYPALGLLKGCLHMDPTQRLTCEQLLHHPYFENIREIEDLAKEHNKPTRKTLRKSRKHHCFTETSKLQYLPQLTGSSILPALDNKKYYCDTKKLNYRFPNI
Sequence of UniProt O14733 (whole entry, looked up): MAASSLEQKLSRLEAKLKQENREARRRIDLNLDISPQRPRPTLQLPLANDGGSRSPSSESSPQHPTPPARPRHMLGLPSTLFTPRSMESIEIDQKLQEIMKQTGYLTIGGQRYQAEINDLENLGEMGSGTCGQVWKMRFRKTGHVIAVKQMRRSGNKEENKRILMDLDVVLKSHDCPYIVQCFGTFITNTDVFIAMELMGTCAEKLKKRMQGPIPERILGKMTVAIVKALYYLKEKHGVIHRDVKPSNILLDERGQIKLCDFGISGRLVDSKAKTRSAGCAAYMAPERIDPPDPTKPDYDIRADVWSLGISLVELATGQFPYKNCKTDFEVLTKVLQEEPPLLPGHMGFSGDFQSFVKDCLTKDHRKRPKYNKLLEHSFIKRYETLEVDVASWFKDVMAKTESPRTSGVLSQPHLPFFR

Set 1 — method: competition with immobilised ligand; concentration: 1 µM
SMILES: O=C(Nc1ccc(Oc2ccc(F)cc2)cc1)N1CCc2ncccc2[C@H]1c1ccc(F)cc1
target	effect on	remaining binding [%]
MAP2K7 (Homo sapiens, UniProt O14733)	cell-free assay	100
AKT1 (Homo sapiens, UniProt P31749)	cell-free assay	95
STK38 (Homo sapiens, UniProt Q15208)	cell-free assay	99
TAOK1 (Homo sapiens, UniProt Q7L7X3)	cell-free assay	100
PIK3C2B (Homo sapiens, UniProt O00750)	cell-free assay	96
CDKL1 (Homo sapiens, UniProt Q00532)	cell-free assay	97
FGFR2 (Homo sapiens, UniProt P21802)	cell-free assay	93
PRKCD (Homo sapiens, UniProt Q05655)	cell-free assay	100
SRPK2 (Homo sapiens, UniProt P78362)	cell-free assay	100
EGFR (Homo sapiens, UniProt P00533, G719S)	cell-free assay	74
PIK3CD (Homo sapiens, UniProt O00329)	cell-free assay	93
SGK3 (Homo sapiens, UniProt Q96BR1)	cell-free assay	97
LATS2 (Homo sapiens, UniProt Q9NRM7)	cell-free assay	100
KIT (Homo sapiens, UniProt P10721, A829P)	cell-free assay	100
CILK1 (Homo sapiens, UniProt Q9UPZ9)	binding	76
CLK1 (Homo sapiens, UniProt P49759)	cell-free assay	86
RAF1 (Homo sapiens, UniProt P04049)	cell-free assay	100
MAP4K5 (Homo sapiens, UniProt Q9Y4K4)	cell-free assay	91
MAP3K14 (Homo sapiens, UniProt Q99558)	cell-free assay	61
DDR1 (Homo sapiens, UniProt Q08345)	cell-free assay	100

Set 2 — method: KINOMEscan; concentration: 10 µM; direction: lower = stronger binding
Structure (SMILES): COc1cc(C(=O)N2CCC(N3CCN(C)CC3)CC2)ccc1Nc1ncc2c(n1)N(C)c1ccccc1C(=O)N2C
target	binding (% of control) [%]
TIE2	100
p38-gamma	76
PFTAIRE2	100
SgK110	62
JNK3	77
PRKR	84
LZK	100
S6K1	100
TRKB	100
AMPK-alpha2	66
CTK	100
ABL1(F317L)-phosphorylated	0.85

Set 3 — effect on: acetyl-histone H4 peptide binding; method: AlphaScreen displacement; concentration: 50 µM
Target: Bromodomain-containing protein 4, BD1 (BRD4, Homo sapiens, UniProt O60885)
Compound	inhibition
COc1ccc(-c2nnc3ccc(SCC(=O)Nc4ccccc4F)nn23)cc1OC	3.6%
O=C(O)c1ccccc1C=NNc1ncc(C(F)(F)F)cc1Cl	3.55%
Cc1cnc(Nc2ccc(F)cc2Cl)nc1-c1c[nH]c(C(=O)N[C@H](CO)c2cccc(Cl)c2)c1	64.1%
O=C1NC(=O)C(=Cc2ccc(-c3cc(Cl)ccc3Cl)o2)S1	2.45%
Cl.Cl.Cl.Cn1cc(-c2[nH]c3cc(NC(=O)[C@H](N)C4CCCCC4)cc4c3c2C=NNC4=O)cn1	76%
COc1ccc(-c2cc3nccn3c(Nc3ncccc3C(N)=O)n2)cc1OC	16.8%
CCCOc1ccc(C=C2SC(=O)N(CCN)C2=O)cc1	22%
COC(=O)C(C)Sc1ccc2nnc(-c3cccc(F)c3)n2n1 (stereo not drawn)	14.1%
COc1ccc(-c2cc3c(C)nc(N)nc3n([C@H]3CC[C@H](OCCO)CC3)c2=O)cn1.O.O	-19.8%
COc1ccc(Nc2ncc(F)c(Nc3ccc(OC)c(Cl)c3)n2)cc1Cl	24.7%
O=C(O)c1cc(N=Nc2ccc(S(=O)(=O)Nc3ccccn3)cc2)ccc1O	16.9%
COC(=O)c1sc2nc[nH]c(=O)c2c1C	3.75%
COc1ccc2nc(NC(=O)C3C4CCC(C4)C3C(=O)O)sc2c1 (stereo not drawn)	5.45%
c1cncc(-c2cnc3c(N4CCOCC4)nccn23)c1	7.6%
CCOc1cc2ncnc(Nc3cccc(Br)c3)c2cc1OCC	31.6%
N#CC(=Cc1c(F)cccc1F)c1nc2ccccc2s1	22.9%
CCN1C(=CC(C)=O)Sc2ccc(OC)cc21	23.9%
O=C1Nc2ccc(S(=O)(=O)O)cc2C1=C1Nc2ccccc2C1=NO	75.7%
CCC(Sc1ccc2nnc(-c3ccc(OC)c(OC)c3)n2n1)C(=O)O (stereo not drawn)	7.15%
O=C1NC(=NCc2cccs2)S/C1=C\c1ccc2ncccc2c1	27.1%
COC(=O)c1ccc(CSc2nc3c([nH]c4ccccc43)c(=O)n2C)o1	2.55%

Set 4 — effect on: enzyme activity; mode: inhibitor; concentration: 0.5 µM; reference: control
SMILES: CCCC(=O)Oc1ccc2[nH]c(C(=O)c3cc4ccccc4[nH]3)cc2c1
target	remaining activity [%]
FYN (Homo sapiens, UniProt P06241)	102
MATK (Homo sapiens, UniProt P42679)	93.4
MARK3 (Homo sapiens, UniProt P27448)	92.1
HIPK1 (Homo sapiens, UniProt Q86Z02)	101
TAOK3 (Homo sapiens, UniProt Q9H2K8)	86.7
NLK (Homo sapiens, UniProt Q9UBE8)	106
ITK (Homo sapiens, UniProt Q08881)	82
LIM domain kinase 1 (LIMK1, Homo sapiens, UniProt P53667)	93.9
FLT4 (Homo sapiens, UniProt P35916)	98.2
SRC (Homo sapiens, UniProt P12931)	97
PRKX (Homo sapiens, UniProt P51817)	96.1
FER (Homo sapiens, UniProt P16591)	101
FGR (Homo sapiens, UniProt P09769)	88.4
STK25 (Homo sapiens, UniProt O00506)	94.5
PKN1 (Homo sapiens, UniProt Q16512)	94.6
Insulin receptor (INSR, Homo sapiens, UniProt P06213)	101
NEK11 (Homo sapiens, UniProt Q8NG66)	101
PASK (Homo sapiens, UniProt Q96RG2)	88.7
AKT1 (Homo sapiens, UniProt P31749)	102
Cyclin-dependent kinase 3, with cyclin E (CDK3, Homo sapiens, UniProt Q00526)	88.2
CDC42BPA (Homo sapiens, UniProt Q5VT25)	98
ALK (Homo sapiens, UniProt Q9UM73)	83.7

Repeated from above (set 2):
target	binding (% of control) [%]
S6K1	100
PRKR	84
p38-gamma	76
JNK3	77
LZK	100
SgK110	62
